# Published values of several laboratories.
# ± marks the error that the study gave.
# Broad substrate specificity ATP-binding cassette transporter ABCG2: Broad substrate specificity ATP-binding cassette transporter ABCG2 (Mus musculus, UniProt Q7TMS5)
# Sequence of UniProt Q7TMS5 (whole entry, looked up): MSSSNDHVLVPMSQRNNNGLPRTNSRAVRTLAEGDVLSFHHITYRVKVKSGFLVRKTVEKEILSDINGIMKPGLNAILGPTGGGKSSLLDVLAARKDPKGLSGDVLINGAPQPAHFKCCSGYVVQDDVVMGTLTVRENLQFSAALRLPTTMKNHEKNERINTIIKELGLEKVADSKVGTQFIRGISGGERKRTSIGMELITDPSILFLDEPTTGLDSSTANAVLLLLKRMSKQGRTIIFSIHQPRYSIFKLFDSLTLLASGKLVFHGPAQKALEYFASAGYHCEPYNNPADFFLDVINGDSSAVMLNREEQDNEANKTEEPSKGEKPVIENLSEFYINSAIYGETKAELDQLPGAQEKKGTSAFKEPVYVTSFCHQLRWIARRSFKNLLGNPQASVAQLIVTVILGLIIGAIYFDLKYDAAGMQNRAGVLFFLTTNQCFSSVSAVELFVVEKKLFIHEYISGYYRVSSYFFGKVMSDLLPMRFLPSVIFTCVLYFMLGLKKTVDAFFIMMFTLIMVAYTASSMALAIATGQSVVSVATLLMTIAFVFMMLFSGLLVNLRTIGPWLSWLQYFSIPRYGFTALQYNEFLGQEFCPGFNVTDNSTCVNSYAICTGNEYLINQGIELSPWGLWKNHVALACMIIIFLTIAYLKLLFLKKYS
# CYP2E1: Cytochrome P450 2E1 (CYP2E1, Homo sapiens, UniProt P05181)
# Sequence of UniProt P05181 (whole entry, looked up): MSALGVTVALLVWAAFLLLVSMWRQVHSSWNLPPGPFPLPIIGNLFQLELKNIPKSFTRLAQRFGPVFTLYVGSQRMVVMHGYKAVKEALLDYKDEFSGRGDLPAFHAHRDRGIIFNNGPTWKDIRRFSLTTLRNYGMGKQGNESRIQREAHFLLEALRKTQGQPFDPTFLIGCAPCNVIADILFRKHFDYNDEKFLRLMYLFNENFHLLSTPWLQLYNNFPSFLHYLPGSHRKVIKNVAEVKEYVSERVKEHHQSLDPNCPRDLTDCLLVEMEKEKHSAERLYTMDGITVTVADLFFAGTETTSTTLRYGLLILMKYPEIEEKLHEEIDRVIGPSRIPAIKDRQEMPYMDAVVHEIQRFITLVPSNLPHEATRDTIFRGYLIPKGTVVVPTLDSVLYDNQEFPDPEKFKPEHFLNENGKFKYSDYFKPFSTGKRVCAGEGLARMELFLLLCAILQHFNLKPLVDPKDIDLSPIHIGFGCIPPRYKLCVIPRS
# Sequence of UniProt P54855 (whole entry, looked up): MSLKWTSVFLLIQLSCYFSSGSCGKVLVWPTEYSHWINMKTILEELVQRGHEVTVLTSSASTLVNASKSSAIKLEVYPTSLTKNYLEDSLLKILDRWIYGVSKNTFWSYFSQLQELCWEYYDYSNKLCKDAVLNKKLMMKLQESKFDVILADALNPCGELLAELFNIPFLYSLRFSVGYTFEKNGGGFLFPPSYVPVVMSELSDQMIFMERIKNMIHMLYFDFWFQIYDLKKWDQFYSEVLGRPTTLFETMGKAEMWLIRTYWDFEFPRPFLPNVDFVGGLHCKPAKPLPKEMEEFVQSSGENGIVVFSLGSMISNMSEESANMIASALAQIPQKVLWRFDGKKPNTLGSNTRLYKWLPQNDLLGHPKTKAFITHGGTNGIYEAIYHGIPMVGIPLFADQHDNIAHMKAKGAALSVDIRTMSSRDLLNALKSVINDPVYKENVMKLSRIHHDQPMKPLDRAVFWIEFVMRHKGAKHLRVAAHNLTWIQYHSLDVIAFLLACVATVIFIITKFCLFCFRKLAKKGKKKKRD
# Sequence of UniProt Q9Y6L6 (whole entry, looked up): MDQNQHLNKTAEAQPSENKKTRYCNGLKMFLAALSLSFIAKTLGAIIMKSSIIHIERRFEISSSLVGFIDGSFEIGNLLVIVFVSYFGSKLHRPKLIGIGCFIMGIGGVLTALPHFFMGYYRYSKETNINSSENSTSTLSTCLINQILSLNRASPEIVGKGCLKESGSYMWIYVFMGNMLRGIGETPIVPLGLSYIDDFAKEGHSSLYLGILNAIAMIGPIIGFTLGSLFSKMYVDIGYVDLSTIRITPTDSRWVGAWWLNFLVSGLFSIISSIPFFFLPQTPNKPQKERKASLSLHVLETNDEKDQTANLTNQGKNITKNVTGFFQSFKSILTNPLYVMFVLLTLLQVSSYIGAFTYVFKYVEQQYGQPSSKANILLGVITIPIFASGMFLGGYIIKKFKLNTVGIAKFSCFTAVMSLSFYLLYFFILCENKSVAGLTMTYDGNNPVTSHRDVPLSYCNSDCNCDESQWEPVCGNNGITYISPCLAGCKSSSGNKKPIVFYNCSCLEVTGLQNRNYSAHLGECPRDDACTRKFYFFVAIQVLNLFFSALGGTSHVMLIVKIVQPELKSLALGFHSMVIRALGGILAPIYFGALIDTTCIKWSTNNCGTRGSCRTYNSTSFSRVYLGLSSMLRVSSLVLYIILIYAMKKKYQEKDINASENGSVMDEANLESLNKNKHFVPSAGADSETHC
# Sequence of UniProt P08183 (whole entry, looked up): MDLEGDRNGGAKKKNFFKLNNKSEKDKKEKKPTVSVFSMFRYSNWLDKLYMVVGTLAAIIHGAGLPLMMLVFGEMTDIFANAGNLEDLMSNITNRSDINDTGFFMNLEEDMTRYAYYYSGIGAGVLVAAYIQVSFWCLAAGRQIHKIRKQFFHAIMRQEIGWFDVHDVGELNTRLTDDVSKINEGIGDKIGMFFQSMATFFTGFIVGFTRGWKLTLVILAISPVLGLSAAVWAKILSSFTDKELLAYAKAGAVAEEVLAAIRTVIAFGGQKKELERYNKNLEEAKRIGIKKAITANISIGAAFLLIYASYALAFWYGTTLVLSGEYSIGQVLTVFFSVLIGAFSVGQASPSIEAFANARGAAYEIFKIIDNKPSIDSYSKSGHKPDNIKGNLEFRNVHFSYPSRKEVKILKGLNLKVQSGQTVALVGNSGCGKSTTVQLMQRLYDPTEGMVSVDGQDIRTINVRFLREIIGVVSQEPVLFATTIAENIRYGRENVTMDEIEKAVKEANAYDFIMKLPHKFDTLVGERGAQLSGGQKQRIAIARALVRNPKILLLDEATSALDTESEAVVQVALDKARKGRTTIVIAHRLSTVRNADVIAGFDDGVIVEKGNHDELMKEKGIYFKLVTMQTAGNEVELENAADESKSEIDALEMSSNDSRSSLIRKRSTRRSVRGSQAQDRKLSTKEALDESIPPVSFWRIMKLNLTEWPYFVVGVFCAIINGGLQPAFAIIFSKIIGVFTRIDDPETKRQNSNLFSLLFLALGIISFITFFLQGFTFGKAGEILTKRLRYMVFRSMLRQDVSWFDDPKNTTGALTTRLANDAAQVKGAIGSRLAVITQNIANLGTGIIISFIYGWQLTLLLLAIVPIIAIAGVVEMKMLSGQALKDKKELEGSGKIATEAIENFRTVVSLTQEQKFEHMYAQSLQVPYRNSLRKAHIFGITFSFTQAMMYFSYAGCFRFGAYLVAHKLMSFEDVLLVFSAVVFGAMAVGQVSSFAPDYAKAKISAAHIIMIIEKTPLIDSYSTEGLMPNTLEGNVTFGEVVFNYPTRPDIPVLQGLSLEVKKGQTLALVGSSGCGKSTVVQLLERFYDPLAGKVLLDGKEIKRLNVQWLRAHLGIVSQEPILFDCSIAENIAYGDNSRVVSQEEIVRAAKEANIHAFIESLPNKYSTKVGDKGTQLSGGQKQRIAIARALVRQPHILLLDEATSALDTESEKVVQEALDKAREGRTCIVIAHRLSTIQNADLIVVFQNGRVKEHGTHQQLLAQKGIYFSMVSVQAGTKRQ
# Sequence of UniProt P49888 (whole entry, looked up): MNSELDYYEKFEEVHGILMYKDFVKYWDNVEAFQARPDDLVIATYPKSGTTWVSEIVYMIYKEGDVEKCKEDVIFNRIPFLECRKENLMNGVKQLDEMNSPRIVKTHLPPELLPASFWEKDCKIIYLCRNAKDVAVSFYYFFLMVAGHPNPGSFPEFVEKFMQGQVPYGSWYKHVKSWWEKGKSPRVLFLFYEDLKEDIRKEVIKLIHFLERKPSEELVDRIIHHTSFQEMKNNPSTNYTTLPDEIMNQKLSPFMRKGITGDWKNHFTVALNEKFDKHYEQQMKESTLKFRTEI
# Sequence of UniProt P05177 (whole entry, looked up): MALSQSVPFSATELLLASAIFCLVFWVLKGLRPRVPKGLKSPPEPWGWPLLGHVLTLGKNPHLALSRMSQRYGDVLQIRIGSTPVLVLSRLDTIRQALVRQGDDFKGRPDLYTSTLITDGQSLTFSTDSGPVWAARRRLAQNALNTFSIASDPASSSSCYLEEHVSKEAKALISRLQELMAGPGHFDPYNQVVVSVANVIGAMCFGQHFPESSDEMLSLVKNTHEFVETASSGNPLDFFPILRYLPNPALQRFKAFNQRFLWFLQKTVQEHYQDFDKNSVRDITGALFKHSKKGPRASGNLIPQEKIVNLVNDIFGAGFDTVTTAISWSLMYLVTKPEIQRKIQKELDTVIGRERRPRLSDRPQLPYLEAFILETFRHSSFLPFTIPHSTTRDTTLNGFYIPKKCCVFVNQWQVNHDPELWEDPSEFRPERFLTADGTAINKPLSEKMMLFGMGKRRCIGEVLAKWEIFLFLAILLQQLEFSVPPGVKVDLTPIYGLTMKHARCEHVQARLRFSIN
# Sequence of UniProt P08684 (whole entry, looked up): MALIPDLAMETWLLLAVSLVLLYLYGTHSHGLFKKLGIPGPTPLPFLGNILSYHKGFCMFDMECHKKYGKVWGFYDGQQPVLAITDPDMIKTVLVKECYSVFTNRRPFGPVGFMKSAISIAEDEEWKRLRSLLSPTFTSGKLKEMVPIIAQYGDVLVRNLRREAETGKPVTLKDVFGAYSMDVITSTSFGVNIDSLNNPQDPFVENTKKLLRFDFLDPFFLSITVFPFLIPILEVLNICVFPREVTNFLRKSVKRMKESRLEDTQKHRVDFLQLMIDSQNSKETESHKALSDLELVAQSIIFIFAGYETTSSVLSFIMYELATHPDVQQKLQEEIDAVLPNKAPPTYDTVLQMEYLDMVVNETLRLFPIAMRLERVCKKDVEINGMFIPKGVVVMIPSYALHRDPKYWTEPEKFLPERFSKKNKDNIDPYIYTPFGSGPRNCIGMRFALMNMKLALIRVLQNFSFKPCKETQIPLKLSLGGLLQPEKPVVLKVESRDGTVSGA
Compound,target,test,system,setting,scale,quantity,value
CC(C)=CCc1c(O)cc2c(c1O)C(=O)C[C@@H](c1ccc(O)cc1)O2,human CYP2B6,,,"10 µM, pH 7.4",,inhibition,35.7 ± 1.9%
CN1C[C@@H]2C[C@H]1CN2c1cc2c(cc1F)c(=O)c(C(=O)O)cn2C1CC1,Broad substrate specificity ATP-binding cassette transporter ABCG2,substrate,MDCK-II transduced with mouse Abcg2,"10 µM, 4 h, basolateral to apical",,transport,43.8 ± 10%
CC(C)C[C@H](NC(=O)CNC(=O)c1cc(Cl)ccc1Cl)B(O)O,CYP3A4,,,,,CYP3A4 intrinsic clearance,0.0576 µL/min/pmol
CCCCC1=NC2(CCCC2)C(=O)N1Cc1ccc(-c2ccccc2S(=O)(=O)Nc2noc(C)c2C)c(COCC)c1,CYP3A4,"enzyme induction, inducer",human,,,EC50,1.83 µM
O=c1c(-c2ccc(O)cc2)coc2cc(O)ccc12,"Androgen receptor (AR, Homo sapiens, UniProt P10275, Q868H)","luciferase reporter gene, antagonist",,"concentration not given, heat-inactivated rat liver microsomes",,antagonist activity,inactive
C#C[C@]1(O)CC[C@H]2[C@@H]3CCC4=CC(=NO)CC[C@@H]4[C@H]3CC[C@@]21CC (mixture of isomers),human CYP2B6,retrograde calculation,microsomal incubation,,,unbound fraction in microsomes,1
C[C@H]1CN(C2COC2)CCN1c1ccc(Nc2cc(-c3ccnc(N4CCn5c(cc6c5CC(C)(C)C6)C4=O)c3CO)cn(C)c2=O)nc1,human CYP3A4/5,,human liver microsomes,"1 µM, 60 min, pH 7.4, together with: ketoconazole 1 µM, NADPH",relative to: 0 min,remaining compound,97.2 ± 10.5%
CCc1oc2ccccc2c1C(=O)c1cc(Br)c(OC)c(Br)c1,CYP2E1,"p-nitrophenol hydroxylation, inhibitor",,with additive 100 µM,,Ki,6.3 µM
COc1cc2c(CCNC(C)=O)c[nH]c2cc1O,"Sulfotransferase 1E1 (SULT1E1, Homo sapiens, UniProt P49888)","substrate, sulfation, purified enzyme",,"10 µM, 10 min, pH 7.0, 37 °C",,specific activity,1.65 ± 0.2 nmol/min/mg
Cn1ncnc1[C@H]1c2n[nH]c(=O)c3cc(F)cc(c23)N[C@@H]1c1ccc(F)cc1,Broad substrate specificity ATP-binding cassette transporter ABCG2,,MDCK-II Bcrp1-overexpressing,"1 µM, 1 h, 37 °C",relative to: vector control cells,intracellular accumulation,83.1 ± 4.4%
CC[C@H]1[C@@H](O)[C@@H]2[C@H](CC[C@]3(C)[C@@H]([C@H](C)CCNC(=O)NS(=O)(=O)c4ccc(C(C)(C)C)cc4)CC[C@@H]23)[C@@]2(C)CC[C@@H](O)C[C@@H]12,"Cytochrome P450 3A4 (CYP3A4, Homo sapiens, UniProt P08684)",substrate,"human, plasma","10 mg, alone, study day 1",,CL/F mean,30.5 L/h
O=C(O)[C@H]1O[C@@H](Oc2ccc([C@@H]3[C@@H](CC[C@H](O)c4ccc(F)cc4)C(=O)N3c3ccc(F)cc3)cc2)[C@H](O)[C@@H](O)[C@@H]1O,"Solute carrier organic anion transporter family member 1B1 (SLCO1B1, Homo sapiens, UniProt Q9Y6L6)","transporter uptake, inhibitor",MDCKII expressing SLCO1B1,"10 min, together with: 1 µM coproporphyrin I",,IC50,1.97 µM
c1ccc2cnccc2c1,CYP2E1,inhibitor,reconstituted CYP-CPR-b5 system,"competitive inhibition model, together with: p-nitrophenol",,Ki,0.544 ± 0.105 µM
N#C[C@H](C[C@@H]1CCCNC1=O)NC(=O)[C@H](CC1CC1)NC(=O)c1cc2cccc(Cl)c2[nH]1,CYP2E1,ISEF abundance scaling,,"2 µM, pH 7.4",,fraction metabolised,< 1%
C[C@@H]1CC[C@]2(C(=O)O[C@@H]3O[C@H](CO)[C@@H](O)[C@H](O)[C@H]3O)CC[C@]3(C)C(=CC[C@@H]4[C@@]5(C)CC[C@H](O)[C@@](C)(CO)[C@@H]5CC[C@]43C)[C@@H]2[C@]1(C)O,human CYP3A4/5,"mechanism-based inhibitor, refers to: 6β-hydroxytestosterone",pooled human liver microsomes,"50 µM, 30 min preincubation, together with: testosterone 17.34 µM",,remaining activity,79.1%
CC1(C)CCC2(CC1)N[C@@H](C(=O)N[C@@H]1CC[C@@H](C(N)=O)OC1)[C@H](c1ccnc(Cl)c1F)[C@]21C(=O)Nc2cc(Cl)ccc21,"ATP-dependent translocase ABCB1 (ABCB1, Homo sapiens, UniProt P08183)",,Caco-2 monolayers,"30 µM, 120 min, no inhibitor",,Papp B to A,9.95 ×10⁻⁶ cm/s
Cn1c(=O)c2c(ncn2C)n(C)c1=O,"Cytochrome P450 1A2 (CYP1A2, Homo sapiens, UniProt P05177)",,"human, plasma","oral, 200 mg, day 1, alone, geometric mean",,Cmax,4190 ng/mL
Cn1cncc1[C@@](N)(c1ccc(Cl)cc1)c1ccc2c(c1)c(-c1cccc(Cl)c1)cc(=O)n2C,human CYP2B6,mRNA induction,,,,EC50,14.9 µM
Cc1oc2ccccc2c1Cc1cc(I)c(OCC(=O)O)c(I)c1,"Voltage-gated inwardly rectifying potassium channel KCNH2 (KCNH2, Homo sapiens, UniProt Q12809, S620T)","potassium current, outside-out excised patch",Xenopus oocytes,"10 µM, bath application",,current effect,no effect
O=C(O)COc1cccc(-c2nc(Nc3ccc4[nH]ncc4c3)c3ccccc3n2)c1,"UDP-glucuronosyltransferase 2B15 (UGT2B15, Homo sapiens, UniProt P54855)","enzyme activity, inhibitor",recombinant microsomes,together with: diclofenac,,IC50,47.8 µM
CC(C)=CCc1c(O)cc(O)c2c1O[C@H](c1ccc(O)cc1)CC2=O,human CYP2B6,,,"1 µM, pH 7.4",,inhibition,< 10%

# For quick reference, copied from above:
Compound,target,test,system,setting,scale,quantity,value
O=c1c(-c2ccc(O)cc2)coc2cc(O)ccc12,"Androgen receptor (AR, Homo sapiens, UniProt P10275, Q868H)","luciferase reporter gene, antagonist",,"concentration not given, heat-inactivated rat liver microsomes",,antagonist activity,inactive
N#C[C@H](C[C@@H]1CCCNC1=O)NC(=O)[C@H](CC1CC1)NC(=O)c1cc2cccc(Cl)c2[nH]1,CYP2E1,ISEF abundance scaling,,"2 µM, pH 7.4",,fraction metabolised,< 1%
COc1cc2c(CCNC(C)=O)c[nH]c2cc1O,"Sulfotransferase 1E1 (SULT1E1, Homo sapiens, UniProt P49888)","substrate, sulfation, purified enzyme",,"10 µM, 10 min, pH 7.0, 37 °C",,specific activity,1.65 ± 0.2 nmol/min/mg
